Measurements collected from several papers.
Each line is one published result; not all experiments were run side by side. Numbers after ± are the reported error.

| Compound | test | system | setting | logP |
| --- | --- | --- | --- | --- |
| Cc1c([O][Ru][Cl])c(=O)ccn1CCCCn1ccc(=O)c([O][Ru][Cl])c1C.Cc1ccc(C(C)C)cc1.Cc1ccc(C(C)C)cc1 | shake flask, ICP-MS | n-octanol/water | aqua complex | -1.33 |
| CN(C)C(=O)c1ccc(COC(=O)N[c-]2cccc2)cc1.[Fe+2].c1cc[cH-]c1 | RP-TLC | MOPS/acetonitrile | pH 7.4 | 3.36 ± 0.11 |
| COc1cc(OC)cc(C2=C3C(C)=C(I)C(/C=C/c4c[nH]c5ccc([N+](=O)[O-])cc45)=[N+]3[B-](F)(F)n3c(/C=C/c4c[nH]c5ccc([N+](=O)[O-])cc45)c(I)c(C)c32)c1 | – | octanol/HEPES buffer | pH 7.4, room temperature | 1.94 |
| CCCCCCCCCC[N]1C(=O)c2cccc[n+]2[Ir]1[Cl].Cc1c(C)c(C)[c-](C)c1C | shake-flask | octanol/PBS | – | 1.47 ± 0.2 |
| O=C(OCc1ccc(F)cc1)N(Cc1cccc(CN2CCCCC2)c1)[c-]1cccc1.[Fe+2].c1cc[cH-]c1 | RP-TLC | MOPS/acetonitrile | pH 7.4 | 6.05 ± 0.07 |
| N[C@H](CSC(F)(F)[18F])C(=O)O | – | n-octanol/water | – | -2.22 |
| CC1=C2[O][Ru-]([Cl])[O+]=C2C=CN1CCCN1C=CC2=[O+][Ru-]([Cl])[O]C2=C1C.Cc1ccc(C(C)C)cc1.Cc1ccc(C(C)C)cc1 | shake flask, ICP-MS | n-octanol/water | aqua complex | -1.39 |
| N#Cc1ccc(/C=C/C=C/c2ccc3ncnc(Nc4ccccc4)c3c2)cc1 | – | octanol/water | – | 1.55 |
| CC/C=C\C/C=C\C/C=C\C/C=C\C/C=C\C/C=C\CCC(=O)Nc1ccn(C2OC(CO)C(O)C2(F)F)c(=O)n1 (stereo not shown) | – | octanol/PBS | pH 7.4 | 2.24 ± 0.25 |
| CCN(CC)c1ccc2c(-c3ccc(S(=O)(=O)NCCNC(=O)CN4CCN(CC(=O)[O-])CCN(CC(=O)O)CCN(CC(=O)[O-])CC4)cc3S(=O)(=O)[O-])c3ccc(=[N+](CC)CC)cc-3oc2c1.[64Cu+2] | – | – | – | -1.4 ± 0.1 |
| CCCCC[P+](c1ccccc1)(c1ccccc1)c1ccccc1 | shake flask, HPLC | 1-octanol/water | – | -0.84 ± 0.01 |
| CC[P+](CC)(CC)[Au-][S]c1ccc(SCC(=O)N[C@H]2[C@H](OC(C)=O)O[C@H](COC(C)=O)[C@@H](OC(C)=O)[C@@H]2OC(C)=O)cc1 | – | n-octanol/water | – | -0.36 |
| N=C(N)NCCC[C@@H]1NC(=O)[C@H](CCCCNC(=O)CC[C@H](NC(=O)CN2CCN(CC(=O)O)CCN(CC(=O)O)CCN(CC(=O)O)CC2)C(=O)NCCCC[C@@H]2NC(=O)[C@@H](Cc3ccccc3)NC(=O)[C@H](CC(=O)O)NC(=O)CNC(=O)[C@H](CCCNC(=N)N)NC2=O)NC(=O)[C@@H](Cc2ccccc2)NC(=O)[C@H](CC(=O)O)NC(=O)CNC1=O [gallium-68 labelled] | – | octanol/PBS | pH 7.4, room temperature | -4.04 ± 0.15 |
| COc1ccc(C=NCCCN(C)CCN(C)CCCN=Cc2ccc(OC)cc2O)c(O)c1 | – | 1-octanol/saline | pH 7.4, 67Ga complex | 1.92 ± 0.01 |
| C#CCN(C(=O)OCc1ccc(C(=O)N(C)C)cc1)[c-]1cccc1.[Fe+2].c1cc[cH-]c1 | RP-TLC | MOPS/acetonitrile | pH 7.4 | 3.96 ± 0.15 |
| C1=CCCC=CCC1.F[P-](F)(F)(F)(F)F.[Pt+][c]1ccccc1P(=Nc1ccccc1)(c1ccccc1)c1ccccc1 | – | n-octanol/phosphate buffer | pH 7.00 | 0.02 |
| CC(C)[P+](c1ccccc1)(c1ccccc1)c1ccccc1 | HPLC | octanol/water | 100 µM | -1.28 ± 0.01 |

| Compound | test | system | setting | logP |
| --- | --- | --- | --- | --- |
| CC[P+](c1cc(C)cc(C)c1)(c1cc(C)cc(C)c1)c1cc(C)cc(C)c1 | shake flask, HPLC | 1-octanol/water | – | 0.08 ± 0.02 |
| CC[P+](CC)(CC)[Au-][S][C@@H]1O[C@H](COC(C)=O)[C@@H](O[C@H]2O[C@H](COC(C)=O)[C@@H](OC(C)=O)[C@H](OC(C)=O)[C@H]2OC(C)=O)[C@H](OC(C)=O)[C@H]1OC(C)=O | – | n-octanol/water | – | 0.45 |
| COC(=O)c1ccccc1-c1c2ccc(=O)cc-2oc2cc(OCCCCCCCCCCC[P+](c3ccccc3)(c3ccccc3)c3ccccc3)ccc12 | shake-flask HPLC | 1-octanol/water | – | 2.72 ± 0.07 |
| O=C([O-])CN1CCNCCNCCN(C(C(=O)[O-])c2ccc(C(=O)O)cc2)CC1.[Mn+2] (stereo not shown) | UPLC retention time | – | – | 0.58 |
| O=C(N[c-]1cccc1)OCc1ccc(F)cc1.[Fe+2].c1cc[cH-]c1 | RP-TLC | MOPS/acetonitrile | pH 7.4 | 4.17 ± 0.27 |
| COc1cc(OC)cc(C2=C3C(C)=C(I)C(/C=C/c4c[nH]c5ccccc45)=[N+]3[B-](F)(F)n3c(/C=C/c4c[nH]c5ccccc45)c(I)c(C)c32)c1 | – | octanol/HEPES buffer | pH 7.4, room temperature | 1.16 |
| COC(=O)c1ccccc1-c1c2ccc(=O)cc-2oc2cc(OCCCCCCCC[P+](c3ccccc3)(c3ccccc3)c3ccccc3)ccc12 | shake-flask HPLC | 1-octanol/water | – | 1.25 ± 0.05 |
| CCC1=C(CC)C2=[N+]3C1=Cc1c(CC)c(CC)c4[n]1[Ir-3]31([C]#[N+]c3ccc(OC)cc3)([C]#[N+]c3ccc(OC)cc3)[n]3c(c(CC)c(CC)c3=CC3=[N+]1C(=C4)C(CC)=C3CC)=C2.F[B-](F)(F)F | ICP-MS | n-octanol/saline | – | 3.11 |
| CC[P+](CC)(CC)[Au-][S+](C[C@H]1O[C@H](O[C@H]2O[C@H](COC(C)=O)[C@@H](OC(C)=O)[C@H](OC(C)=O)[C@H]2OC(C)=O)[C@H](OC(C)=O)[C@@H](OC(C)=O)[C@@H]1OC(C)=O)[Au-][P+](CC)(CC)CC.[Cl-] | – | n-octanol/water | – | -0.28 |
| CCC1=C(CC)C2=[N+]3C1=Cc1c(CC)c(CC)c4[n]1[Ir-3]31([n+]3ccccc3)([n+]3ccccc3)[n]3c(c(CC)c(CC)c3=CC3=[N+]1C(=C4)C(CC)=C3CC)=C2.[Cl-] | ICP-MS | n-octanol/saline | – | 2.83 |
| O=C([O-])CN1CCN(CC(=O)[O-])CCN(CC(=O)NCCc2ccc3c(c2)C2C=CCC2C(c2cc4c(cc2Br)OCO4)N3)CCN(CC(=O)[O-])CC1.[111In+3] (stereo not shown) | – | octanol/water | In(III) complex | 4.8 ± 0.3 |
| CN(C)[P+](c1ccccc1)(c1ccccc1)c1ccccc1 | HPLC | octanol/water | 100 µM | -1.29 ± 0.194 |
| COCCOCCOCCOCCOCCOCCOCCOCCOCCOCCOCCOCCNC(=O)CCC1(CCC(=O)NCCOCCOCCOCCOCCOCCOCCOCCOCCOCCOCCOCCOC)c2ccccc2-c2ccc(-c3sc(-c4c5c(c(-c6sc(-c7ccc8c(c7)C(CCC(=O)NCCOCCOCCOCCOCCOCCOCCOCCOCCOCCOCCOCCOC)(CCC(=O)NCCOCCOCCOCCOCCOCCOCCOCCOCCOCCOCCOCCOC)c7ccccc7-8)c7c6OCCO7)c6nsnc46)N=S=N5)c4c3OCCO4)cc21 | shake flask | n-octanol/water | – | -1.25 |
| Fc1cc2nc3c4cccnc4c4ncccc4c3nc2cc1F.[Cl-].[Cl-].[Ru+2].c1ccncc1.c1ccncc1.c1ccncc1.c1ccncc1 | – | n-octanol/water | – | -1.15 ± 0.05 |
| Cc1ccc(C(C)C)cc1.[C-]#[O+].[C-]#[O+].[C-]#[O+].[Cl-].[Cl-].[Cl-].[Re+].[Ru+2].c1cnc(-c2ncccn2)nc1 | shake flask | – | – | 0.241 |
| Cc1c(C)c(C)[c-](C)c1C.O=C([N-]c1ccccc1)c1ccccn1.[Cl-].[Ir+3] | shake-flask | octanol/PBS | – | 1.15 ± 0.23 |
| O=C1c2ccccc2C2(c3ccc(O)cc3Oc3cc(O)ccc32)N1CCS(=O)(=O)O | shake flask | n-octanol/water | 25 °C | -1.03 |

Some of these lines once more:
| Compound | test | system | setting | logP |
| --- | --- | --- | --- | --- |
| CCCCC[P+](c1ccccc1)(c1ccccc1)c1ccccc1 | shake flask, HPLC | 1-octanol/water | – | -0.84 ± 0.01 |
| CC[P+](CC)(CC)[Au-][S]c1ccc(SCC(=O)N[C@H]2[C@H](OC(C)=O)O[C@H](COC(C)=O)[C@@H](OC(C)=O)[C@@H]2OC(C)=O)cc1 | – | n-octanol/water | – | -0.36 |
| N=C(N)NCCC[C@@H]1NC(=O)[C@H](CCCCNC(=O)CC[C@H](NC(=O)CN2CCN(CC(=O)O)CCN(CC(=O)O)CCN(CC(=O)O)CC2)C(=O)NCCCC[C@@H]2NC(=O)[C@@H](Cc3ccccc3)NC(=O)[C@H](CC(=O)O)NC(=O)CNC(=O)[C@H](CCCNC(=N)N)NC2=O)NC(=O)[C@@H](Cc2ccccc2)NC(=O)[C@H](CC(=O)O)NC(=O)CNC1=O [gallium-68 labelled] | – | octanol/PBS | pH 7.4, room temperature | -4.04 ± 0.15 |
| COc1ccc(C=NCCCN(C)CCN(C)CCCN=Cc2ccc(OC)cc2O)c(O)c1 | – | 1-octanol/saline | pH 7.4, 67Ga complex | 1.92 ± 0.01 |
